Results of several laboratories.
Protocols differ between the studies behind these lines. Several values in a cell are separate wells, animals, samples, runs or records. ± marks the error that the study gave.

Sequences of proteins named here, by UniProt entry; tags and fusion partners are left off.
UniProt P08908, whole entry: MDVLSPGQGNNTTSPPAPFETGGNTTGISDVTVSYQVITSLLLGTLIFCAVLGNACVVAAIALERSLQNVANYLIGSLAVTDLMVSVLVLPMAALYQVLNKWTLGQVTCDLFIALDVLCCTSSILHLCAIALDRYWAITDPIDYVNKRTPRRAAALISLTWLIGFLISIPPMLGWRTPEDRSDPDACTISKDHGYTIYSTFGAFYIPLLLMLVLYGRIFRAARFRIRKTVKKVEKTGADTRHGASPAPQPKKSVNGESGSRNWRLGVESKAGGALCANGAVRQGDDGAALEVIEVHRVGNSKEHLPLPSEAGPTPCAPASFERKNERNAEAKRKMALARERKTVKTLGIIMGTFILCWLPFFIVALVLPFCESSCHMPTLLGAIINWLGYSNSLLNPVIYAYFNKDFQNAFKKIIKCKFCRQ
UniProt Q06187, whole entry: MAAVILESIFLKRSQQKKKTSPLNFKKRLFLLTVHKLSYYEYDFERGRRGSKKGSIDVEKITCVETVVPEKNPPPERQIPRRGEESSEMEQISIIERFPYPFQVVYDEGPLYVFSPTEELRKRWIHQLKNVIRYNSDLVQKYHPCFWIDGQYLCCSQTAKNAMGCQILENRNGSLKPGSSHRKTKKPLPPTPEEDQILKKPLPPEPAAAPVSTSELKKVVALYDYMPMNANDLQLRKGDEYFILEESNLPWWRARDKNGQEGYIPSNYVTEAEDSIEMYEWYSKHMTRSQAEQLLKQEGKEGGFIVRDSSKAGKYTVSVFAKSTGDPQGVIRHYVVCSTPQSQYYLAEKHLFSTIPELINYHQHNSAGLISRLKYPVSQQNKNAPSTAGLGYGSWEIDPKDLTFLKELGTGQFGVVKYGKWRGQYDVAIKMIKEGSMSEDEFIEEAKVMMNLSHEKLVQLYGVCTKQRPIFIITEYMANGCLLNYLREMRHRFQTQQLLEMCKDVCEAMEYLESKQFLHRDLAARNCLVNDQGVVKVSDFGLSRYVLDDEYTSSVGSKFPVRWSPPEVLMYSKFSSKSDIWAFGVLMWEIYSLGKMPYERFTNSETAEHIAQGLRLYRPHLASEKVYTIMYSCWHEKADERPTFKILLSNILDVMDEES
UniProt Q9Y616, whole entry: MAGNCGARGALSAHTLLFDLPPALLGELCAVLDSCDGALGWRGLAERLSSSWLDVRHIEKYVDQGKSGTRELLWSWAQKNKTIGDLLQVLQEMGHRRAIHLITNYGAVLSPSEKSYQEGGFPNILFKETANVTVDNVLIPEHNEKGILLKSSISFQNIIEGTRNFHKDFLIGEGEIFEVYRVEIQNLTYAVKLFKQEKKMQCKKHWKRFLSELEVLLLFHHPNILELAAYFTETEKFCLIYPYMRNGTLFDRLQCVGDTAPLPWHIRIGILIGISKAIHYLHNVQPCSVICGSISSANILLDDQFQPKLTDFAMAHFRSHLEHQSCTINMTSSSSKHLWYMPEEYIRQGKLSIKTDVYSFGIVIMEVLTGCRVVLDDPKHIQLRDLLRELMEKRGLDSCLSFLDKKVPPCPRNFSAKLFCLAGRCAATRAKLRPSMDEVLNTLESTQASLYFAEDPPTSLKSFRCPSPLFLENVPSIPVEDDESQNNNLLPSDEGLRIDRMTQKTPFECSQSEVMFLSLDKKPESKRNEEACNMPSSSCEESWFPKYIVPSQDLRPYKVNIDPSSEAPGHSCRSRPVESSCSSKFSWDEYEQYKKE

| Molecule | target or system | assay | system | setting | how to read | quantity | value |
| --- | --- | --- | --- | --- | --- | --- | --- |
| CO[C@]12CC[C@@]3(C[C@@H]1[C@@](C)(O)C(C)(C)C)[C@H]1Cc4c(Cl)cc(O)c5c4[C@@]3(CCN1CC1CC1)[C@H]2O5 |  | antagonist, tail-flick test | mice | added: morphine |  | AD50 | 4.7 mg/kg |
| CN1CC[C@]23c4c5ccc(O)c4O[C@H]2[C@@H](O)C=C[C@H]3[C@H]1C5 |  | cAMP inhibition, GloSensor |  | unit not given | relative to: MOR over DOR | ΔΔlog(Emax/EC50) | 2.48 |
| CCCN1CCN(c2ccc3c(c2)C2CC3CCN2C(=O)OCc2ccccc2)CC1 (centres unmarked) | HTR1A (Homo sapiens, UniProt P08908) | binding, radioligand binding |  |  |  | Ki | 1190 nM |
| CC#C/C(=N\OC[C@H]1COCCN1)c1ccc2ncnc(Nc3ccc(OCc4cccc(F)c4)c(Cl)c3)c2c1 | BTK (Homo sapiens, UniProt Q06187) | kinase activity |  | 10 µM |  | inhibition | 45.1% |
| CN(C(=O)Cc1ccc(Cl)c(Cl)c1)[C@@H]1CCCC[C@H]1N1CCCC1 |  |  | cocaine-discriminating rats | dose not given, highest doses tested, added: cocaine 5.6 mg/kg training | relative to: baseline | response rate | ~10% |
| nociceptin |  | twitch contraction, electrical stimulation | mouse vas deferens |  |  | Emax | 76 % inhibition and 78 % inhibition |
| CC[C@H](C)[C@@H]1NC(=O)[C@H](CCC(=O)O)NC(=O)[C@@H]2CCCN2C(=O)[C@H](Cc2c[nH]cn2)NC(=O)[C@H](CC(=O)O)NC(=O)[C@H](Cc2ccc(O)cc2)NC(=O)[C@H](CC(N)=O)NC(=O)[C@@H]2CSSC[C@@H]3NC(=O)CNC(=O)CNC(=O)CNC(=O)[C@H](C)NC(=O)[C@H](C)NC(=O)CNC(=O)CNC(=O)[C@H](CSSC[C@H](NC3=O)C(=O)N[C@@H](CO)C(=O)N[C@@H](CC(=O)O)C(=O)N3CCC[C@H]3C(=O)N[C@@H](CCCNC(=N)N)C(=O)N2)NC1=O |  | barium current, inhibitor, electrophysiology |  | 0.2 µM, Cav2.3d splice variant |  | inhibition | 23 ± 2.9% |
| CCN1CCN(Cc2ccc(NC(=O)c3ccc(C)c(/C=C/c4cnc5[nH]ccc5c4OC)c3)cc2C(F)(F)F)CC1 | Interleukin-1 receptor-associated kinase 3, with CDC37 (IRAK3, Homo sapiens, UniProt Q9Y616) | inhibitor, kinome profiling | human cells | 5 µM | relative to: vehicle | log2 fold change | 0.295 |
| CCC(C)C(CC)C(N)=O (centres unmarked) |  | subcutaneous metrazol seizure | mouse | intraperitoneal |  | ED50 | 32 mg/kg |
| NC(=O)[C@H](Cc1ccccc1)NC(=O)[C@H](CCCN=C(N)N)NC(=O)C12CC3CC(CC(C3)C1)C2 |  | warm-water tail withdrawal | mouse | intracerebroventricular, 10 nmol |  | tail-withdrawal latency | no effect |
| CO[C@]12CC[C@@]3(C[C@@H]1[C@](C)(O)C(C)(C)C)[C@H]1Cc4ccc(O)c5c4[C@@]3(CCN1CC1CC1)[C@H]2O5 |  | agonist, PPQ-induced writhing test | mice |  |  | ED50 | 0.016 mg/kg |

For quick reference, copied from above:
| Molecule | target or system | assay | system | setting | how to read | quantity | value |
| --- | --- | --- | --- | --- | --- | --- | --- |
| CC#C/C(=N\OC[C@H]1COCCN1)c1ccc2ncnc(Nc3ccc(OCc4cccc(F)c4)c(Cl)c3)c2c1 | BTK (Homo sapiens, UniProt Q06187) | kinase activity |  | 10 µM |  | inhibition | 45.1% |
| CC[C@H](C)[C@@H]1NC(=O)[C@H](CCC(=O)O)NC(=O)[C@@H]2CCCN2C(=O)[C@H](Cc2c[nH]cn2)NC(=O)[C@H](CC(=O)O)NC(=O)[C@H](Cc2ccc(O)cc2)NC(=O)[C@H](CC(N)=O)NC(=O)[C@@H]2CSSC[C@@H]3NC(=O)CNC(=O)CNC(=O)CNC(=O)[C@H](C)NC(=O)[C@H](C)NC(=O)CNC(=O)CNC(=O)[C@H](CSSC[C@H](NC3=O)C(=O)N[C@@H](CO)C(=O)N[C@@H](CC(=O)O)C(=O)N3CCC[C@H]3C(=O)N[C@@H](CCCNC(=N)N)C(=O)N2)NC1=O |  | barium current, inhibitor, electrophysiology |  | 0.2 µM, Cav2.3d splice variant |  | inhibition | 23 ± 2.9% |
